# Experimental data gathered from unrelated publications.
# Each line is one published result; not all experiments were run side by side. ± marks the error that the study gave.
SMILES,cell line,test,system,conditions,IC50
O=C(O)COCC(=O)O,iPSC-derived hepatocytes B2,cell viability,,"48 h, differentiation day 23",10100 µM
CCCCCCCC[N+](CCCCCCCC)(CCCCCCCC)CCCCCCCC,differentiated LUHMES MT1G::HiBiT-G2 neurons,cell viability,,24 h,0.32 µM
COc1ccc2nc(NC(=O)Nc3ccccc3)sc2c1,AC16 cardiomyocytes,mitochondrial membrane potential decrease,,1 h,1.73 ± 0.12 µM
COc1cccc2c1C(=O)c1c(O)c3c(c(O)c1C2=O)C[C@@](O)(C(=O)CO)C[C@@H]3O[C@H]1C[C@H](N)[C@H](O)[C@H](C)O1,B16-F10,cell growth,,96 h,0.145 µM
CC(C)C[C@H](NC(=O)[C@@H](NC(=O)[C@@H]1CCCN1C(=O)[C@@H](NC(=O)[C@H](CO)NC(=O)[C@@H](NC(=O)[C@H](CCC(N)=O)NC(=O)[C@@H]1CCCN1C(=O)[C@@H](NC(=O)[C@H](CCCCN)NC(=O)[C@H](CCCCN)NC(=O)[C@@H](NC(=O)[C@H](Cc1ccc(O)cc1)NC(=O)[C@H](CCCNC(=N)N)NC(=O)[C@@H](NC(=O)[C@@H](N)CC(C)C)C(C)C)[C@@H](C)O)C(C)C)C(C)C)[C@@H](C)O)[C@@H](C)O)C(=O)O,SUP-T1,"Erk phosphorylation, inhibitor, phospho flow cytometry",,together with: CXCL12 100 ng/mL,> 100 µM
COc1cc(C#N)c(Oc2ccccc2C)cc1-n1c(=O)cc(-c2ccc(C(F)(F)F)cc2)[nH]c1=O,U-87 MG,,,,~30 µM
CC(=O)O[C@H]1C(=O)[C@@]2(C)[C@H]([C@H](OC(=O)c3ccccc3)[C@]3(O)C[C@H](OC(=O)[C@H](O)[C@@H](NC(=O)c4ccccc4)c4ccccc4)C(C)=C1C3(C)C)[C@]1(OC(C)=O)CO[C@@H]1C[C@@H]2O,"PC-3/TxR, resistant to compound","cell proliferation, MTS",,72 h,0.155 ± 0.0181 µM
CSCC[C@H](NC(=O)[C@H](CCCCN)NC(=O)[C@H](CCCNC(=N)N)NC(=O)[C@H](CO)NC(=O)[C@H](Cc1c[nH]c2ccccc12)NC(=O)[C@H](CCCNC(=N)N)NC(=O)[C@H](CC(C)C)NC(=O)[C@H](N)Cc1ccccc1)C(=O)N1CCC[C@H]1C(=O)N[C@@H](CS)C(=O)N[C@H](C(=O)N[C@@H](CO)C(N)=O)C(C)C,SUP-T1,"Erk phosphorylation, inhibitor, phospho flow cytometry",,together with: CXCL12 100 ng/mL,> 100 µM
C=CC(=O)Nc1cc(Nc2nccc(-c3cn(C)c4ccccc34)n2)c(OC)cc1N(C)CCN(C)C,Ba/F3 EGFR G719S/T263P,cell proliferation,,72 h,0.0494 ± 0.0035 µM
CSCC[C@H](NC(=O)[C@H](CCCCN)NC(=O)[C@H](CCCNC(=N)N)NC(=O)[C@H](CO)NC(=O)[C@H](Cc1c[nH]c2ccccc12)NC(=O)[C@H](CCCNC(=N)N)NC(=O)[C@H](CC(C)C)NC(=O)[C@H](CO)NC(C)=O)C(=O)N1CCC[C@H]1C(=O)N[C@@H](CS)C(=O)N[C@H](C(=O)N[C@@H](CO)C(N)=O)C(C)C,SUP-T1,"Erk phosphorylation, inhibitor, phospho flow cytometry",,together with: CXCL12 100 ng/mL,> 100 µM
Cc1cc(Nc2ncc(Cl)c(Nc3ccccc3S(=O)(=O)C(C)C)n2)c(OC(C)C)cc1C1CCNCC1,ALK fusion wild-type lines,cell viability,,,0.028 µM
COC[C@@H](C)NC1CCC(Nc2cc(-c3cccc(NCC4(C#N)CCOCC4)n3)c(Cl)cn2)CC1 (stereo partly shown),patient-derived organoid sample C,organoid viability,human,96 h,0.09 µM
CCCCCCOC(=O)c1ccc(O)cc1,AC16 cardiomyocytes,mitochondrial membrane potential decrease,,1 h,17.6 ± 5.67 µM
COc1cc(NCC(=O)Nn2c(C)nc3ccc(Cl)cc3c2=O)cc(OC)c1OC,LoVo,"cytotoxicity, LDH release",,"24 h, 50% viability reduction",608 ± 13.1 µM
C=CC(=O)NC1CCN(c2ncc3ncnc(Nc4ccc(Oc5ccc6c(c5)ncn6C)c(C)c4)c3n2)CC1,Ba/F3 expressing HER2 wild type,"cell growth, inhibitor, CellTiter-Glo",,,0.0031 µM
Cc1cc(N2CCc3c(c(C)nn3CC34CCC(NC(=O)[C@@H]5COCCN5)(CC3)CC4)C2)c2cnn(C)c2n1,human PBMC,"IFN-driven gene expression, inhibitor, qRT-PCR, measured: IRF7 mRNA",,"two donors, together with: ssRNA",0.001 ± 0.0003 µM
CC[C@H](C)[C@H](N)C(=O)N[C@H](CC(C)C)C(=O)N[C@@H](CCCNC(=N)N)C(=O)N[C@@H](Cc1c[nH]c2ccccc12)C(=O)N[C@@H](CO)C(=O)N[C@@H](CCCNC(=N)N)C(=O)N[C@@H](CCCCN)C(=O)N[C@@H](CCSC)C(=O)N1CCC[C@H]1C(=O)N[C@@H](CS)C(=O)N[C@H](C(=O)N[C@@H](CO)C(=O)O)C(C)C,SUP-T1,"Erk phosphorylation, inhibitor, phospho flow cytometry",,together with: CXCL12 100 ng/mL,> 100 µM
COC(=O)CN=c1scc(-c2ccccc2)n1-c1ccc(Cl)cc1,Panc 03.27,"cell viability, MTT",,72 h,27.4 µM
CSCC[C@H](NC(=O)[C@H](N)Cc1ccccc1)C(=O)N[C@@H](CCCNC(=N)N)C(=O)N[C@@H](Cc1c[nH]c2ccccc12)C(=O)N[C@@H](CO)C(=O)N[C@@H](CCCNC(=N)N)C(=O)N[C@@H](CCCCN)C(=O)N[C@@H](CCSC)C(=O)N1CCC[C@H]1C(=O)N[C@@H](CS)C(=O)N[C@H](C(=O)N[C@@H](CO)C(N)=O)C(C)C,SUP-T1,"Erk phosphorylation, inhibitor, phospho flow cytometry",,together with: CXCL12 100 ng/mL,> 100 µM
COc1ccc(F)cc1C(=O)NCc1ccc(-c2nn([C@@H](C)C(F)(F)F)c(N)c2C(N)=O)cc1,Rec1,measured: IL-8,,24 h,0.0045 ± 0.0016 µM
CCn1ncc2c1-c1cnc(N)c(c1)O[C@H](C)c1cc(F)ccc1-c1nn(C)nc1C2,"NCI-H1975, EGFR L858R/T790M",cell viability,,,> 10 µM
C=CC[C@@H]1/C=C(\C)C[C@H](C)C[C@H](OC)[C@H]2O[C@@](O)(C(=O)C(=O)N3CCCC[C@H]3C(=O)O[C@H](/C(C)=C/[C@@H]3CC[C@@H](O)[C@H](OC)C3)[C@H](C)[C@@H](O)CC1=O)[C@H](C)C[C@@H]2OC,Jurkat FKBP12 knockout,NFAT luciferase reporter,,,0.00947 µM
C[C@H](Nc1ccc2c(c1)OCCn1cc(N3C(=O)OC[C@H]3C(F)F)nc1-2)C(N)=O,BFTC-909,"growth rate inhibition, CellTiter-Glo",,120 h,10 µM
Cc1c(C(=O)O)ccc2c3n(nc12)[C@@H]1[C@H](C3)N(CC2CC2)[C@@]2(C(=O)Nc3cc(Cl)ccc32)[C@H]1c1cccc(Cl)c1F,U-2 OS (MDM2 non-amplified),"cell proliferation, alamarBlue",,120 h,> 2 µM
Cc1c(C)c2c(c(C)c1O)CCC(C)(COc1ccc(CC3SC(=O)NC3=O)cc1)O2 (stereo not shown),iPSC-derived hepatocytes B2,cell viability,,"24 h, differentiation day 23",27 µM
Cc1nc(NC(=O)N2CCC[C@H]2C(N)=O)sc1-c1ccnc(C(C)(C)C(F)(F)F)c1,BFTC-909,"growth rate inhibition, CellTiter-Glo",,120 h,7.07 µM
CCOc1cc2ncc(C#N)c(Nc3ccc(OCc4ccccn4)c(Cl)c3)c2cc1NC(=O)/C=C/CN(C)C,Ba/F3 expressing HER2 wild type,"cell growth, inhibitor, CellTiter-Glo",,,0.0006 µM
Cn1nnc2c(C(N)=O)ncn2c1=O,sample A PDX,neurosphere formation,,together with: talazoparib 10 nM,0.081 µM
CNc1nc2c(c(N3CC(=O)Nc4cc(OC)ccc43)n1)CCC2,"PDX-derived, HCI-10-Luc2, taxane refractory","cell growth, MTS",,,0.001 to 0.004 µM
COc1cccc2c1C(=O)c1c(O)c3c(c(O)c1C2=O)C[C@@](O)(C(=O)CO)C[C@@H]3O[C@H]1C[C@H](N)[C@H](O)[C@H](C)O1,MCF7/ADR,"cell viability, MTT",,48 h,5.62 ± 0.34 µg/mL
CC[C@@H](C)[C@@H](NC(C)=O)C(=O)N[C@@H](CC(C)C)C(=O)N[C@@H](CCCNC(=N)N)C(=O)N[C@@H](Cc1c[nH]c2ccccc12)C(=O)N[C@@H](CO)C(=O)N[C@@H](CCCNC(=N)N)C(=O)N[C@@H](CCCCN)C(=O)N[C@@H](CC(C)C)C(=O)N1CCC[C@H]1C(=O)N[C@@H](CS)C(=O)N[C@H](C(=O)N[C@@H](CO)C(N)=O)C(C)C,SUP-T1,"Erk phosphorylation, inhibitor, phospho flow cytometry",,together with: CXCL12 100 ng/mL,17.2 ± 4.86 µM
CCCCN1C[C@H](O)[C@@H](O)[C@@H](O)[C@H]1CO,sample D patient fibroblasts,"Gb3 level lowering, LC-MS/MS, measured: Gb3 d18:1/24:1",,216 h,12.4 µM
CSCC[C@H](NC(=O)[C@H](CCCCN)NC(=O)[C@H](CCCNC(=N)N)NC(=O)[C@H](CO)NC(=O)[C@H](Cc1c[nH]c2ccccc12)NC(=O)[C@H](CCCNC(=N)N)NC(=O)[C@@H](CC(C)C)NC(=O)[C@@H](N)CCSC)C(=O)N1CCC[C@H]1C(=O)N[C@@H](CS)C(=O)N[C@H](C(=O)N[C@@H](CO)C(N)=O)C(C)C,SUP-T1,"Erk phosphorylation, inhibitor, phospho flow cytometry",,together with: CXCL12 100 ng/mL,> 100 µM
COC(=O)CN=c1scc(-c2ccccc2)n1-c1ccc(C)cc1,Panc 03.27,"cell viability, MTT",,72 h,10.8 µM
